# Published values from different studies.
# Each numbered part is a random draw from the data of one study; scales do not carry over between parts.

# Set 1
# Target: Ras GTPase-activating protein-binding protein 1, full length (G3BP1, Homo sapiens, UniProt Q13283)
# UniProt Q13283, sequence (whole entry, looked up): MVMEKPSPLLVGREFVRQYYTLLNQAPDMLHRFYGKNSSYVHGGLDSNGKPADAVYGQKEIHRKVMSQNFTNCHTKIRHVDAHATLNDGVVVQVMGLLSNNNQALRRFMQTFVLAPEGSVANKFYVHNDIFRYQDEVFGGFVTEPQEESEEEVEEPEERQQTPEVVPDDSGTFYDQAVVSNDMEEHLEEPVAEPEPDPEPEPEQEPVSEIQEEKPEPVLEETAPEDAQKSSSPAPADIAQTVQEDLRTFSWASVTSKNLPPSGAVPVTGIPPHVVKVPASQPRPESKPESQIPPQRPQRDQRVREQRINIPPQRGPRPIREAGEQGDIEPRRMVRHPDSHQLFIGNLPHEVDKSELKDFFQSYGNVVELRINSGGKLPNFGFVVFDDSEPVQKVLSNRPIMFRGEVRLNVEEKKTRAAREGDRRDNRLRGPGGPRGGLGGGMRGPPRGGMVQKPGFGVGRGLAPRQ
# Method: RNA Bind-n-Seq
# Molecule type: RNA
# Sample: in vitro
# Tested at: 200 nM
# Notes: whole 134-nt RNA, ends assumed
# Added: 150 mM LiCl
# Relative to: input library
# Reading: higher = stronger binding
# Library: 7-deaza-guanosine replaces G
# All sequences stand within: GGGAGUUCUACAGUCCGACGAUC … UGGAAUUCUCGGGUGUCAAGG
Strand,log2 enrichment
CCUGUGCUACACAUCGUAUGUACCGAAUCGGGAAAAAAAGGGUUUUUGGGUUUUUUUGGGAAAGUAUUAUGUUACGCCGUUCGGAUCUGC,-1.88
UGUGCUACACAUCGUAUGUACCGAAUCGGGGAAAAAAAGGGGAAAAAAAGGGGUUUUUGGGGAAAGUAUUAUGUUACGCCGUUCGGAUCU,-0.235
UGGGAGGUGGAUUUUGUUUAUUUUUUUAGCUCAUUUCCAGGGGUGGGAAUUUUUUUUUAAUAUGUGUCAUGAAUAAAGUUGUCUUUGAAA,-0.2
UGAAGACUAUGAGACUGCUCUAUCAGGAAAGGAAGCCCUUUCGGCUGCGCUGCGCUCACAAAACCUCACCAAGAGUACAGAGAACCACAG,-0.0979
AAGUCCUGUGCUACACAUCGUAUGUACCGAAUCGGGUUUUUGGGUUUUUGGGUGGGAAAGUAUUAUGUUACGCCGUUCGGAUCUGCACUU,-0.609
AGUCCUGUGCUACACAUCGUAUGUACCGAAUCGGUUUUUGGGUUUUUGGUUUUUGGGGAAAGUAUUAUGUUACGCCGUUCGGAUCUGCAC,-0.0393
UGGGCGGCUGCGAGAUGAGAACGGACGACCCUACUCGCCCAGUCAGUAUGCGCUCCAGUACGCCGGGGACGGCAGUGUCCUCCUCAUCCC,-0.762
AAGUCCUGUGCUACACAUCGUAUGUACCGAAUCGGGCCCCGGCCCCGGCCCCGGGGAAAGUAUUAUGUUACGCCGUUCGGAUCUGCACUU,-0.394
AAGUCCUGUGCUACACAUCGUAUGUACCGAAUCGGGAAAGGGUUUGGGUUUUUGGGAAAGUAUUAUGUUACGCCGUUCGGAUCUGCACUU,-0.983
AAGUCCUGUGCUACACAUCGUAUGUACCGAAUCGGGAAAAAGGGAGGGAAAAAGGGAAAGUAUUAUGUUACGCCGUUCGGAUCUGCACUU,0.0176
CAAGUCCUGUGCUACACAUCGUAUGUACCGAAUCGGUUUGGAAAAAAAGGAAAGGAAAGUAUUAUGUUACGCCGUUCGGAUCUGCACUUC,-1.27

# Set 2
# Target: Phosphate system positive regulatory protein PHO4, full length, GST-tagged (PHO4, Saccharomyces cerevisiae, UniProt P07270, residues 1-312)
# Method: competition protein-binding microarray
# Molecule type: double-stranded DNA, one strand shown
# Sample: in vitro
# Tested at: 2 µM
# Notes: whole 60-bp probe, lowest competitor level
# Added: Cbf1 competitor, 0.05 µM
# Reading: higher = stronger binding
# All sequences stand within: … GTCTTGATTCGCTTGACGCTGCTG
# Residues (chain): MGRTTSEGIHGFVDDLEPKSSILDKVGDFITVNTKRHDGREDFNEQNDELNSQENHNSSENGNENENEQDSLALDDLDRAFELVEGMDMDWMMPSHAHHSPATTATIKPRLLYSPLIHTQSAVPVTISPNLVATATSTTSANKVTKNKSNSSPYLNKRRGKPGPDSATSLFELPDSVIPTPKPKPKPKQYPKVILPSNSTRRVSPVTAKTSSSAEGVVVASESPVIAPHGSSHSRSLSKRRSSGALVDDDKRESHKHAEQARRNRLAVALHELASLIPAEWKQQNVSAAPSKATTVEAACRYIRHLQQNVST
Strand,fluorescence intensity
CACTTCCTAACCCATCACGGGATACCGAATTGGGTA,6820 a.u.
CGTCCTAGCGATTGACGAGTGGGTGCCATGAGGAAG,6370 a.u.
GTCATAGACAGAACACACGTGGTGAGGAAAAAGGAC,18200 a.u.
GGCAATTTGTATTGCCATGTGCTGCAGGCATGTCTG,11300 a.u.
AGGCAAGGAGAGCACCATGTGCTGAGTCACAAATAC,11200 a.u.
CATACCCAACCTTGAATGGTGGGTGAAGATATTTGT,4780 a.u.
TGCGCAACAACTTGCACGGTGGGTGTATGTCTAGAA,6270 a.u.
TATTAACGCTGCTGTCATGCCATCTCAATGGGAATT,4540 a.u.
GACTTTTTCCTGAGGCACATGTGTGGCCATCGTCAA,11700 a.u.
AAAATGAGATAGATACATGCGTGAGACAATTGCCTT,6380 a.u.
CTAACGAAGGTTTGCAAAGTGGGTGACAAGCCAAGT,3520 a.u.
GTTCAGTCCTCATATCATGTGATTCCCCTGGCTCTC,5690 a.u.
AACTACTGCCTTTATCATGTGACGGAACTACGCTTG,6340 a.u.
CGGGGTTAAGTTTGGAACGTGGGTGGCTTGCAGCAG,12800 a.u.
TGCGCAACAACTTTTCACGTGAGCTTATGTCTAGAA,10200 a.u.
GCGGTGTCAAACGGTCTGGTGTGCCATCTAGAAGTT,4240 a.u.
AAATTACTAAGTTGATAGGTGGGTGACGCCGTATGA,4240 a.u.
GCAATTCCTTTCTGAAACGTGAAAAGATACCGTCAA,7240 a.u.
TAACTCAGATTGACGCTCGTGATGGCTTCTCCACTG,7650 a.u.
CTAACGAAGGTTTGCACGGTGGGTGACAAGCCAAGT,6710 a.u.
TAAAAGAGGTTCTCACTCGTGAATACACCATCAACT,4120 a.u.
TAGAGCAAGAACTAGTTCGTGCCGAAGCTGAATCTT,6060 a.u.
CGGCAAATCCTCTTCCACATGTGTGTCTTTGAATCA,10400 a.u.
ACTGCCATGGGTTTTGGCGTGGGTATGTTCACCTCA,5130 a.u.
AAATTACTAAGTTGGAAAGTGGGTGACGCCGTATGA,3530 a.u.

# Set 3
# Target: Histone acetyltransferase KAT6A, both winged helices, GST fusion (KAT6A, Homo sapiens, UniProt Q92794, residues 1-181)
# Method: protein binding microarray
# Molecule type: double-stranded DNA, one strand shown
# Sample: in vitro
# Tested at: not given
# Notes: 8-mer, flanks averaged, mean of 2 arrays, mostly near background
# Relative to: not given
# Reading: higher = stronger binding
# Target sequence (chain): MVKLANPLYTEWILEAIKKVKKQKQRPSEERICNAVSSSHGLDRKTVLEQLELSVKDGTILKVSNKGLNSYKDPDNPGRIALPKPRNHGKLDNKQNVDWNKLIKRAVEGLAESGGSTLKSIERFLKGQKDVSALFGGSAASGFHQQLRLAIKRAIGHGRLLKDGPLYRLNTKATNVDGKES
Strand,E-score
CGGAAGAA,0.152
AGATATTA,-0.0138
ACGTAGTG,0.0432
AGGATTCA,-0.153
ATCGACAG,-0.0357
CTGTTACC,-0.134
CGTGCCCC,0.0433
GAGGCTGC,-0.259
GAACCTTA,-0.0724
AGTTTCGC,0.0883
TGCCAGCA,-0.139
GATCGGAC,0.134
AATTATCT,-0.0947
AATACAAT,-0.0569
AACTGGTA,-0.123
CTCAGGGC,-0.0675
CTTCTTGC,0.097
GGTGTGAA,-0.0279
ACACGTAT,0.0221
AAGCTAGG,-0.0623

# Set 4
# Target: Prothrombin, mature alpha-thrombin (F2, Homo sapiens, UniProt P00734)
# Method: aptamer microarray, sandwich
# Molecule type: DNA with 2'F-ANA
# Sample: in vitro
# Tested at: 200 nM
# Notes: whole 15-mer aptamer, many near background
# Added: Cy3 exosite-II aptamer, 400 nM
# Reading: higher = stronger binding
# Strand: GGTTGGTGTGGTTGG
Modification,mean fluorescence intensity
2'F-ANA at 3 5 7 11 12,197 a.u.
2'F-ANA at 1 3 5 6 7 8 11 12,108 a.u.
2'F-ANA at 1 3 5 6 7 11 13 15,54.1 a.u.
2'F-ANA at 1 3 7 8 9 13 14,120 a.u.
2'F-ANA at 1 2 9 13,121 a.u.
2'F-ANA at 1 2 4 5 9 10 14,48.4 a.u.
2'F-ANA at 1 6 12 13 14 15,67 a.u.
2'F-ANA at 2 3 5 6 7 9 10 11 12 13 15,55.7 a.u.
2'F-ANA at 2 4 6 7 8 9 10 11 13 14,59.9 a.u.
2'F-ANA at 1 4 7 9 10 12 15,59.3 a.u.
2'F-ANA at 1 5 6 8 9 13,48.2 a.u.
2'F-ANA at 1 2 4 5 7 9 10 11 13 14,57.9 a.u.
2'F-ANA at 2 3 6 7 8 9 11 14,325 a.u.
2'F-ANA at 4 5 6 7 9 12 15,123 a.u.
2'F-ANA at 1 2 3 4 5 8 9 12 14 15,48.9 a.u.
2'F-ANA at 1 3 4 5 6 8 9 13 15,52.1 a.u.
2'F-ANA at 6 8 9 10 13 14,94.3 a.u.
2'F-ANA at 2 3 5 6 8 10 15,76.7 a.u.
2'F-ANA at 1 4 5 6 11 12 14,45.3 a.u.
2'F-ANA at 1 3 4 5 6 8 11 12 14,86.3 a.u.

# Excerpt of the above (set 3):
Strand,E-score
ACGTAGTG,0.0432
AGGATTCA,-0.153
ATCGACAG,-0.0357
CTGTTACC,-0.134
CGTGCCCC,0.0433
GAGGCTGC,-0.259
GAACCTTA,-0.0724
AGTTTCGC,0.0883
TGCCAGCA,-0.139
